Assay results of several laboratories.
Compare with care: the assays were run in different laboratories. ± marks the error that the study gave. In brackets after ≈: the same amount, converted by molar mass.

O=C(N/N=C/c1ccc2c(ccc[n+]2Cc2ccccc2)c1)C(=O)N/N=C/c1ccc2c(ccc[n+]2Cc2ccccc2)c1 — ΔTm (telomeric G4 DNA hybrid-2; FRET melting; 1 µM, DNA 0.2 µM): 8.1 ± 0.9 °C
C=C(NC(=O)c1csc(-c2nc3c(cc2O)-c2nc(cs2)C(=O)NC(C(C)O)C(=O)NC(=C(C)OC)c2nc(cs2)C(=O)NC2c4nc(cs4)C(=O)NC(COC(=O)c4c5c6c(cccc6n4O)COC(=O)C(OC4CC(C)(O)C(N(C)C)C(C)O4)C2OC5)c2nc-3cs2)n1)C(N)=O (stereo not shown) — bacterial load (Streptococcus pneumoniae; -25, immunocompromised mice, lung infection, lung; 8 mg/kg/day three times daily, 24 h post-dose): 3.55 log CFU/g
C=CC(=O)N1[C@@H](c2ccc3c(c2)OCO3)c2[nH]c3ccccc3c2C[C@H]1C(=O)N1CCN(C)CC1 — log2 fold change (CCNE1 WT-3xFLAG:CDK2 complex; co-IP TMT proteomics, refers to: ELP5; HEK-293T; 20 µM, 6 h; relative to: DMSO): -0.2
CC(C)(C)c1cc(-c2ccc3cccnc3n2)nc(-c2ccc3cccnc3n2)c1.COc1ccncc1.[Cl-].[Cl-].[Ru+2].c1ccc2cc3nc4c5cccnc5c5ncccc5c4nc3cc2c1 — EC50 (B16-F10; cell viability; dark): 29200 ± 1600 nM
COc1cc(O)ccc1CCC(c1ccc(O)cc1)c1cc2c(c(C)c1O)OC(c1ccc(O)cc1)CC2 (mixture of isomers) — amount (refers to: eicosapentaenoic acid; human whole blood; 0.3 µM, with: Escherichia coli): 75100 ± 16700 pg/mL blood
Nc1ncc(-c2cc(-c3cnn(CC(F)(F)F)c3)ncc2F)nc1C(=O)NC1CNCC(F)C1 (stereo not shown) — remaining binding (ERBB2; KINOMEscan; 1 µM; relative to: DMSO control): 100%
C=CC(=O)Nc1cccc(Cn2ncc3cnc(Nc4cnn(CCOC)c4)nc32)c1 — percent of control (MAPKAPK2 human; binding, KINOMEscan; 100 nM; lower = stronger binding): 100%
CNS(=O)(=O)Nc1nccc(Cc2c(C)c3ccc(Oc4ncccc4F)cc3oc2=O)c1F — IC50 (NCI-H2073; cell viability; 7 days): 6.34 nM
CC[n+]1cccc2cc(/C=N/NC(=O)c3cccc(C(=O)N/N=C/c4ccc5c(ccc[n+]5CC)c4)n3)ccc21 — ΔTm (telomeric G4 DNA hybrid-2; FRET melting; 1 µM, DNA 0.2 µM): 21.5 ± 1.2 °C
c1ccc(-c2n[nH]cc2-c2ccnc3ccccc23)nc1 — log2 fold change (DUN1 (Candida albicans); kinase binding, MIB/MS competition; Candida albicans lysate; 1 µM; relative to: DMSO): 0.01
O=C(N/N=C/c1cc[n+](Cc2ccccc2)c2ccccc12)c1cncc(C(=O)N/N=C/c2cc[n+](Cc3ccccc3)c3ccccc23)n1 — ΔTm (telomeric G4 DNA hybrid-2; FRET melting; 1 µM, DNA 0.2 µM): 22.7 ± 1.7 °C
CN1CCCNC(=O)c2cccc(c2)C(=O)NCCCN(C)CCCNc2cccc3c2C(=O)c2cccc(c2C3=O)NCCC1 — log2 fold change (SAS; RNA-Seq, refers to: TIAL1 mRNA; 1 µM, 6 h; relative to: untreated cells): -0.92
C[n+]1cccc2cc(/C=N/NC(=O)c3cccc(C(=O)N/N=C/c4ccc5c(ccc[n+]5C)c4)n3)ccc21 — ΔTm (telomeric G4 DNA hybrid-2; FRET melting; 1 µM, DNA 0.2 µM): 23.7 ± 0.9 °C
Cc1ncsc1-c1ccc(C(C)NC(=O)C2CC(O)CN2C(=O)C(NC(=O)CCCCCCCCCCN2CCCC(Nc3ncc(Cl)c(Nc4ccccc4S(=O)(=O)C(C)C)n3)C2)C(C)(C)C)cc1 (stereo not shown) — log2 fold change (22Rv1; RNA-seq, refers to: PARS2 mRNA; concentration not given; relative to: DMSO): -2.25
CC(C)c1ccc(N(C)c2ccc3c(c2)OCC[C@H]3CNc2cnccc2C(=O)O)cc1 — IC50 (CFPAC-1; cell viability, CellTiter-Glo; 7 days): 15.3 nM
O=C(N/N=C/c1ccc(C[n+]2ccccc2)cc1)N/N=C/c1ccc(C[n+]2ccccc2)cc1 — ΔTm (telomeric G4 DNA hybrid-2; FRET melting; 1 µM, DNA 0.2 µM, with: duplex DNA competitor 10 µM): 5.4 ± 2.2 °C
N=C(N)NCCC[C@@H]1NC(=O)[C@H](CCCNC(=N)N)NC(=O)[C@@H](C(c2ccccc2)c2ccccc2)NC(=O)[C@H](Cc2c[nH]c3ccccc23)NC(=O)[C@@H](C(c2ccccc2)c2ccccc2)NC(=O)[C@@H](CCCNC(=N)N)NC(=O)[C@@H](CCCNC(=N)N)NC1=O — MIC (Blastomyces dermatitidis; BD-1): 2 µg/mL (≈ 1.59 µM)
O=C(N/N=C/c1cc[n+](Cc2ccccc2)c2ccccc12)c1ccc2ccc(C(=O)N/N=C/c3cc[n+](Cc4ccccc4)c4ccccc34)nc2n1 — ΔTm (telomeric G4 DNA hybrid-2; FRET melting; 1 µM, DNA 0.2 µM): 21.3 ± 0.8 °C
CC(=O)[O-].O.O.O.O.[Co+2].[O-]c1ccc(Br)cc1C=NCCN1CCOCC1 — inhibition (nitric oxide scavenging; 120 µM): 27.6%
COC1CN([C@H]2CC[C@H]([C@@]3(C)Oc4c(Cl)cc(C(=O)NCc5c(SC)cc(C)[nH]c5=O)c(C)c4O3)CC2)C1 — log2 fold change (RNA-seq, refers to: MPZL2 mouse homolog; mouse, HT-1376 xenograft, whole blood; dose not given; relative to: vehicle): 3.93
O=C(N/N=C/c1ccc2c(ccc[n+]2Cc2ccccc2)c1)c1ccc2ccc3ccc(C(=O)N/N=C/c4ccc5c(ccc[n+]5Cc5ccccc5)c4)nc3c2n1 — ΔTm (telomeric G4 DNA hybrid-2; FRET melting; 1 µM, DNA 0.2 µM, with: duplex DNA competitor 10 µM): 27.2 ± 5.1 °C
COCCOCCOCCNC(=O)Cc1cc(CC(=O)N[C@H]2C[C@H]3C(=O)Nc4cc(OCCOCCOCCOC)cc(n4)C(=O)N4CCC[C@H]4C(=O)Nc4cc(OCCOCCOCCOC)cc(n4)C(=O)N4CCC[C@H]4C(=O)Nc4cc(OCCOCCOCCOC)cc(n4)C(=O)N3C2)cc(CC(=O)N[C@H]2C[C@H]3C(=O)Nc4cc(OCCOCCOCCOC)cc(n4)C(=O)N4CCC[C@H]4C(=O)Nc4cc(OCCOCCOCCOC)cc(n4)C(=O)N4CCC[C@H]4C(=O)Nc4cc(OCCOCCOCCOC)cc(n4)C(=O)N3C2)c1 — ΔH (anion binding, ITC; water/methanol, 70 % by volume; with: selenate): -1.22 kcal/mol

Repeated from above:
CC[n+]1cccc2cc(/C=N/NC(=O)c3cccc(C(=O)N/N=C/c4ccc5c(ccc[n+]5CC)c4)n3)ccc21 — ΔTm (telomeric G4 DNA hybrid-2; FRET melting; 1 µM, DNA 0.2 µM): 21.5 ± 1.2 °C
c1ccc(-c2n[nH]cc2-c2ccnc3ccccc23)nc1 — log2 fold change (DUN1 (Candida albicans); kinase binding, MIB/MS competition; Candida albicans lysate; 1 µM; relative to: DMSO): 0.01
